Experimental data gathered from unrelated publications.
A part holds a random share of what one study measured. Changes are numbered by the printed parent chain.

Study 1
Target: RNA binding protein fox-1 homolog 2, RRM domain, GST-SBP tag (RBFOX2, Homo sapiens, UniProt O43251-10, residues 100-194)
Technique: RNA Bind-n-Seq
Form: RNA
Matrix: in vitro
Tested at: 365 nM
Notes: natural RNA segment, single round, ends assumed
Baseline: no-protein control
Direction: higher = stronger binding
Constant ends, left off below: GGGAGUUCUACAGUCCGACGAUC … UGGAAUUCUCGGGUGCCAA
Target sequence (chain): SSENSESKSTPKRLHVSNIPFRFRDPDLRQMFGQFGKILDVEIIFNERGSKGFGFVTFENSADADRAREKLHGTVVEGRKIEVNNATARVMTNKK
Oligonucleotide	RBNS enrichment (R)
UACAGGUGUGAGCCACCGCACCCGGCUCUAUUUAGCUUUUUAAAAAUUAUUUCCUUUCAAGGGCCCUUUAAUAUCUAUCAAGCUCCCUCCCCUAACAAAAUGGGCUGUCC	0.506
UUUCACCACUGGUCAAAUUUUAACCAUUAAAUUGCCAUUCACUUUUAGAAUCUUGUAUUUAAGUUUUGAUUUUCAAAUGUUCUGCUUCAUGUGUCUGUGAAGAAUUGUAC	0.599
UUGGGAAUCCUAUGUGUAUUUAGUUCUGACUAGUCGUUUGAGGUCUCGGUGGCAGAGCCUGGCUAGUGACUACCAUGUUGGUCAGUGCAGCCUGCUAUCACUCCUUCAAG	0.241
CUGGAUGGAGGCUGGUACUUACCCACCCCUUUUAGCUUUUAGGGAUUAAGGAAGGGUCAAGCCAGCCACUGCUGUGGCCCUGCCCAGGGCUUGGUUGAGGGAACGGCUUC	0.353
UGGCUCCCUUGUCUCCAGGGCUUUGGAGGAUCAGGGUAGGGAGGGCUCUGUCUCUAAGCCAGGUGUCAGGAUCAGAAUCAUGGGUAGAAGGUGCCAUUCAGCUCACAGCC	0.705
GUGAUUGUCAAUAUUACAGAAAACAAAAAUGGAUUGCCCCUCCAAGGACCAAACAGAUUCAAGGAGCAUCAUUUAAGCUAAGAAGAGACCUAAGUGAUGAAACUAGCUGU	0.29
CACAAAUGCAACCCCUCCCCUACAAAUCCCAUCCUGAGCCAUUGCAGGGGUAGGGAAGCUCACCCCUCCCCCCCAAAGCCAUGUCACUGAAGAGGCCUGGGGGGUGGUAU	0.665
AUCUUUCUUCCCGCCGCUUGGCUUGAGCCAAGUUUUGUUUUAUAUUAAAAAAGUAUAUAUAAUUAUAUAAAGUUCUUGGAGUCUGCACCGCCAGUGUCGGGAAUGGACCU	1.46
AUGUAGCGAUAUUAAAAAAAAUGUAGCGAUAUAAUUAACCAGCCAUUAAAAAUUUACUUCUACAGAUUUAGUGUCAGUUGAAUUUUAUGUAUUAGGUUCUCAUAUACUGC	0.609
UCUGCUGGCUUAGGGUGAGAAGUACCUCACAAUGGAUGUGAACAUUGGACAGAUUUUAGGAGCAUGAUGUUUGCCUCCUCCGAGAGAGAGGAGUCAGAGAGAGAGAGGAG	4.48
UUCUGCCAUACUUUUCUCCAUUGGCCCAGGUAGGCUAAUUGGUAGUUGUUCAUUUCAGCCUCUGGAUGGCUGGCUGCCUUAAACACAAUCAAUUUCAAAGCUCCAUUUCA	0.467
GGGUUCAUUUAUCUUUUAAGGAGUUUUACUUUUCUCUCCAGAGGGACCAGGUCUUCUUAUGCAGUGACAAGAGUGCGUAGUGUUUUCUUUGCAUACUGUUCAUCGCAGUA	0.255

Study 2
Target: RING finger protein unkempt homolog, zinc fingers 1-6, GST-SBP tag (UNK, Homo sapiens, UniProt Q9C0B0, residues 30-357)
Chain of UniProt Q9C0B0 (30-357, looked up): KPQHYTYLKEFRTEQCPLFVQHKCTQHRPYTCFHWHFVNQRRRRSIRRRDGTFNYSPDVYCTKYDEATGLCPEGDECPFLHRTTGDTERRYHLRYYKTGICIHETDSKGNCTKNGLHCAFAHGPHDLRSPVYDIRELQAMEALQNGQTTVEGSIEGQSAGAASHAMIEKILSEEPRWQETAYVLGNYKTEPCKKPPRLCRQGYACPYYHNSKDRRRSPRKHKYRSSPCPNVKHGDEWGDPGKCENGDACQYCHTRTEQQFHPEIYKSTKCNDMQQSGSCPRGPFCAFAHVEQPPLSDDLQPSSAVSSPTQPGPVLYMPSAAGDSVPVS
Technique: RNA Bind-n-Seq
Form: RNA
Matrix: in vitro
Tested at: not given
Notes: RNA with constant flanks, human-mouse chimeric sites, ends assumed
Baseline: input RNA pool
Direction: higher = stronger binding
Constant ends, left off below: GGGAGUUCUACAGUCCGACGAUC … CAACAGAGGAUUGAGCAUCA
Oligonucleotide	bound/input enrichment [ratio]
UAAGUUAUUUUGUACAGCUUUGUAAAUUGUAUAGCUUAAUUUGUAAACAUGUUUAUUUUGUUUGGGUAAUUUGGUUCAUUAAGUACAUAGCUAAGGUAAUGAACAUCUUUUUCAGUAAUU	0.365
UAAGUUAUUUUGUACAGCUUUGUAAAUUCUUAACAUUUUUAUAUUGCACAUUUUAUGUUGUUUGGGUAAUUUGGUUCAUUAAGUACAUAGCUAAGGUACAUCUUUCAUUUUUCAGUAAUU	0.9
CUUUUUAAGAAGAUAUGUGAUGGGAUCUUUUAUACCCCUCAAUAUUUAAACCCUUCAGUGAUUAGCCUUUUGAAACAUAUGCUGCAGGUGGAUCCCAUGAAGAGGGCCGCAAUAAAAGAU	0.713
ACAGUUAUAUUGUUGAGGUUUGUAUUUAUAUAUUCUUGUAGUGUCUGCUUGCCUGUGACUUCUGGUAAAAUAAGACUAGCCUUUGAAAAUAUUUUAGCAUGGUAUUUAACAUUUUCUAAA	14.8
CUGUGCGGGUGACUGUCCUGGAGUGGCUGGAGUUCCCGCCGGAGCGCGGCCAGACUAAUUUUAGAAAAUGCCAAGUAGGAAGUUUGUUGAGGGUGAAGUGGUAAGAGGCCGAUGGCCUGG	2.7
AUCAAGUACUUUGGGGACAUCAUUAGUGUGGGACAGAGACUGUUGCAAGGAGCUCGGAUCUUAGGGAUUCCAGUUAUCAUAACGGAACAAUACCCUAAAGGACUUGGCAGCACCGUUCAA	0.177
ACUCUUGACUCUUUCCAUCCUCUUCCUUUUCCUCUUGAUAUUCAAGGCCAUGAAUCCCAAAAUAACAGUCUUAGUGGGAGGCUAGCAAACAGAGGUGGAAUAAAUCCACCCCAGUGUCUC	0.487
UCUUUAAAAAAAAAAUUACAGGAAAAUACAGUGCUUUCCCUCCCAUAGAUCCACGUUCAAGCUCAAAGAGCAAAGGCUUUGCACGGAGCUCAAACAUCUGAUGAAGAAAGAUUUCUGAGA	0.978
AAAGUGGACUAUGGUGAAUACAUGGAUAAAAACAAUGUGAGGCGGCAAGCAACAACAAUCAUAGCUGAUAACAUUAUAUUUCUGAGUGACCAGACAAAAGAAAAGGCAUAGAACGGAUGA	2.27
UUGAAAAACACAGAUAUCAAAGUUGUUGACUUUGGAAGUGCAACGUAUGAUGAUGAACAUCACAGUACUUUGGUGUCCACAAGGCACUACAGAGCUCCCGAGGUCAUUUUGGCUUUAGGU	0.35
AUUGUUGAAGCUAACCCACUUUUAGAAGCAUUUGGAAAUGCAAAGACUGUUCGCAACAAUAAUAGCAGUCGAUUUGGAAAAUUUGUAGAAAUACAUUUCAAUGAAAAGAGUUCGGUUGUU	0.371

Study 3
Target: CCNA1, cyclin fold, Cln2 fusion (human)
Technique: yeast growth competition, sequencing
Matrix: yeast
Notes: weak parent motif
Baseline: not given
Direction: higher = stronger binding
Starting sequence: DNAH7 docking peptide (human); HELFQRLDFDNDG; partner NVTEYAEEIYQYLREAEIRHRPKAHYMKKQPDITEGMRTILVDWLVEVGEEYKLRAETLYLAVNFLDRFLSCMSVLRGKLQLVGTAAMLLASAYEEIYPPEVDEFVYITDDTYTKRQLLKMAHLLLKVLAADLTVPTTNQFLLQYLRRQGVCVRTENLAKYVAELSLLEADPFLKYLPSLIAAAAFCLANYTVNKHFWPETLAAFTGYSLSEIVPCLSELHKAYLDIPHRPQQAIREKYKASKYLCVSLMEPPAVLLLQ
Change	normalised enrichment score
HELFQRLDFDNAG [D12A]	-0.287
HELFQRADFDNDG [L7A]	0.151
HELFQRLDFDADG [N11A]	-0.0615
HALFQRLDFDNDG [E2A]	-0.0861
HELFQRLDADNDG [F9A]	0.157
HELAQRLDFDNDG [F4A]	-0.118

Study 4
Target: Prothrombin, mature alpha-thrombin (F2, Homo sapiens, UniProt P00734)
Technique: aptamer microarray, sandwich
Form: DNA with 2'F-ANA
Matrix: in vitro
Tested at: 200 nM
Notes: whole 15-mer aptamer, many near background
Together with: Cy3 exosite-II aptamer, 400 nM
Direction: higher = stronger binding
Oligonucleotide: GGTTGGTGTGGTTGG
Modification	mean fluorescence intensity
2'F-ANA at 6 7 9 10	171 a.u.
2'F-ANA at 1 2 3 4 7 15	193 a.u.
2'F-ANA at 2 3 5 7 9 10 12 13 15	57 a.u.
2'F-ANA at 1 2 3 8 11	232 a.u.
2'F-ANA at 2 3 6 8 9	849 a.u.
2'F-ANA at 2 3 7 8 14	457 a.u.
2'F-ANA at 1 2 6 9 10 11 13 14 15	123 a.u.
2'F-ANA at 2 4 5 8 10 12 14 15	48.4 a.u.
2'F-ANA at 4 5 7 8 10 11 12 13	93.3 a.u.
2'F-ANA at 1 6 8 10 11 15	54.4 a.u.
2'F-ANA at 2 3 7 9 10 11 13 14 15	266 a.u.
2'F-ANA at 4 7 9 11 13 15	166 a.u.
2'F-ANA at 2 4 6 7 10 12	142 a.u.
2'F-ANA at 1 3 4 7 8 9 10 11 14 15	52.8 a.u.
2'F-ANA at 3 5 8 13 14 15	73.2 a.u.
2'F-ANA at 5 7 9 11 12 13 15	93.7 a.u.
2'F-ANA at 1 3 5 7 10 12 13 15	50.5 a.u.
2'F-ANA at 1 5 14	44.1 a.u.
2'F-ANA at 2 3 4 5 7 8 9 10 11 12 13 14	55.7 a.u.
2'F-ANA at 1 2 3 5 7 9 12 15	119 a.u.

Study 5
Target: Sal-like protein 4, full length isoform B (SALL4, Homo sapiens, UniProt Q9UJQ4-2, residues 1-616)
Technique: universal PBM
Form: double-stranded DNA, one strand shown
Matrix: in vitro
Tested at: not given
Notes: 8-mer, flanks averaged, mean of replicates
Direction: higher = stronger binding
Oligonucleotide	E-score
ACTTCTAA	0.00657
CAAGTACC	0.0353
AGTTTAGG	-0.00421
CTAGGCGC	-0.226
AGTCGAAT	-0.0336
GATCATAC	-0.0457
ACCCATGA	-0.156
GAAAACCC	-0.0161
AGTATGGG	-0.0345
CATCACAA	0.191
AGCTCCAC	-0.234
AAGTGGCC	-0.13
ACAAGCAC	-0.0402
CAAAGAGA	0.0343
ATAGTGAA	0.208
AGGGCCAC	-0.289
AAGGATGT	-0.079
ACTCCGAT	-0.0738
TCCCAAAA	0.133
TCGGCTAA	-0.0885
GGCATTAA	0.0474
GCTGCGGA	-0.155
AGGTTCAA	0.0817
AACCCTGT	-0.154
CCATCTAC	0.0484

Further values, each from its own experiment
Substance	target	assay	system	setting	scale	quantity	result
PhoQ, residues 284 288 289 292 302 303 SLANKL	PhoP, residues 12 14 15 18 19 LYHSL (Escherichia coli, UniProt P23836)	Sort-seq, item: YFP reporter	E. coli	PhoQ-PhoP variant library, together with: 10 µM Mg2+	baseline: high Mg2+ state, higher = stronger signaling	fold induction	5.01

For quick reference, copied from above (study 5):
Oligonucleotide	E-score
AAGTGGCC	-0.13
AGCTCCAC	-0.234
GCTGCGGA	-0.155
AAGGATGT	-0.079
GAAAACCC	-0.0161
CAAGTACC	0.0353
AGTCGAAT	-0.0336
